Assay results from different studies.
Several values in a cell are separate wells, animals, samples, runs or records. Numbers after ± are the reported error. ≈ marks a conversion by molar mass, not a printed value.

| SMILES | assay | test system | conditions | scale | measurement | value |
| --- | --- | --- | --- | --- | --- | --- |
| O=C1Nc2cc3[nH]nc(-c4ccncc4)c3cc2CN1Cc1ccccc1 | refers to: decreased appetite | patients with advanced solid tumours | intravenous, dose not given, both schedules pooled |  | patients with TEAE | 27% |
| C[C@]1(CO)Cc2ncn(-c3ccc(C#N)c(Cl)c3)c2C(=O)O1 |  | human | all treatments, European food-effect part |  | drug-related urine abnormality | 0% |
| O=C(O)CCCOc1ccc(F)cc1-c1cc(-c2ccccc2C(F)(F)F)n(-c2ccccc2)n1 | refers to: ovaries | Crl:CD(SD) rats, female | iv, 25 µg/kg, 1 day |  | organ weight | 84.6 ± 15.4 mg |
| O=S(=O)(Nc1ccc2c(c1)B(O)OC2)c1ccc(Cl)cc1 | PAMPA | pre-coated trilayer membrane | 200 µM, 5 h, pH 7.4, donor plate, PBS |  | donor concentration | 180 ± 3.8 µM |
| COc1ccnc(C(=O)N[C@H]2COC(=O)[C@H](Cc3ccccc3)[C@@H](OC(=O)C(C)C)[C@H](C)OC2=O)c1OCOC(=O)C(C)C |  | lactating goat, kidney | dose not given, outcome not detected |  | share of TRR | not detected |
| C=CC(=O)N1CCC(c2ccc(C(N)=O)c(-c3ccc(Oc4ccccc4)cc3)n2)CC1 | CTCAE 4.03 | patients with relapsed/refractory MCL | oral, dose not given, total |  | incidence of fatal serious TEAEs | 0% |
| C[C@H]1CN(C(=O)CC#N)[C@]12CCN(c1ncnc3[nH]ccc13)C2 |  | rat male | oral, 30 mg/kg repeated daily, 3 months, repeated-dose toxicity study |  | AUC at NOAEL | 12800 ng·h/mL |
| Cn1c(-c2ccc(C(N)=O)cc2F)nnc1C(C)(C)Oc1c(F)cc(Cl)cc1F |  | human | oral, dose not given, single ascending dose all doses |  | subjects with nervous system TEAE | 5.6% |
| CC(C)=CC1C(C(=O)OC(C#N)c2cccc(Oc3ccccc3)c2)C1(C)C (stereo not shown) | refers to: CYP2C9 | human, age 6 months |  |  | enzyme contribution to clearance | 7.65% |
| CC(C)CC(=O)OC[C@H]1O[C@@](C#N)(c2ccc3c(N)ncnn23)[C@H](O)[C@@H]1O |  | Mice plasma | 5 µM, 30 min |  | remaining compound | 0% |
| CO[C@H]1C[C@@H]2CC[C@@H](C)[C@@](O)(O2)C(=O)C(=O)N2CCCC[C@H]2C(=O)O[C@H]([C@H](C)C[C@@H]2CC[C@@H](OC(=O)NCCOCCOCCOCCOCCOCCOCCOCCOCCC(=O)N3CCc4cc(Cn5nc(-c6ccc7oc(N)nc7c6)c6c(N)ncnc65)ccc4C3)[C@H](OC)C2)C[C@@H](O)[C@H](C)/C=C(\C)[C@@H](O)[C@@H](OC)C(=O)[C@H](C)C[C@H](C)/C=C/C=C/C=C/1C |  | patients with advanced solid tumours | intravenous, dose not given, any grade |  | incidence of Mucositis TRAE | 49.1% |
| NC(=O)[C@H]1CCN(c2ncnc(N)c2F)C[C@@H]1N1CCC[C@@H](Nc2cc(Cl)cc(C(F)(F)F)c2)C1=O |  | B-cell malignancy patients | oral, 82 mg twice daily, dose |  | grade ≥3 thrombocytopenia | 0% |
| CCCCCCCCCCCCCCCC(=O)N[C@@H](CCC(=O)NCCCC[C@H](NC(=O)[C@H](CC(=O)O)NC(=O)[C@H](CO)NC(=O)[C@@H](NC(=O)[C@H](Cc1ccccc1)NC(=O)[C@@H](NC(=O)CNC(=O)[C@H](CCC(N)=O)NC(=O)[C@H](CO)NC(=O)[C@@H](N)Cc1c[nH]cn1)[C@@H](C)O)[C@@H](C)O)C(=O)N[C@@H](CO)C(=O)N[C@@H](CCC(=O)O)C(=O)N[C@@H](Cc1ccc(O)cc1)C(=O)N[C@@H](CC(C)C)C(=O)N[C@@H](CC(=O)O)C(=O)N[C@@H](CO)C(=O)N[C@@H](CCC(=O)O)C(=O)N[C@@H](CCCNC(=N)N)C(=O)N[C@@H](C)C(=O)N[C@@H](CCCNC(=N)N)C(=O)N[C@@H](CC(=O)O)C(=O)N[C@@H](Cc1ccccc1)C(=O)N[C@H](C(=O)N[C@@H](C)C(=O)N[C@@H](Cc1c[nH]c2ccccc12)C(=O)N[C@@H](CC(C)C)C(=O)N[C@@H](CCC(=O)O)C(=O)N[C@@H](C)C(=O)NCC(=O)NCC(=O)O)C(C)C)C(=O)O | refers to: Vomiting | humans CrCl 45 to 60 mL/min | subcutaneous, 100 µg single dose |  | treatment-related adverse events | 42.9% |
| C[C@@H](NC(=O)N1C(=O)[C@H](Cc2ccnc(N)c2)[C@H]1C(=O)O)C1CCCCC1 |  | healthy adult Chinese volunteers | continuous intravenous infusion, 1.0 mg/kg/h, 5-day infusion, CTCAE 5.0 grading |  | incidence of urine occult blood positive | 12.5% |
| Clc1ccc(-c2ccccc2)cc1 |  | Sprague-Dawley rats, female, serum | inhalation, 23 µg/rat, 1 h after exposure |  | albumin | 3 ± 0.2 g/dL |
| CCCC(CCC)NC(=O)c1ccc2c(c1)OCO2 |  | Swiss albino CD-1 mice, male, bone marrow | intraperitoneal, 350 mg/kg, 48 h |  | PCE/NCE ratio | 0.9 |
| COc1cc(Nc2ncc(F)c(Nc3ccc4c(n3)NC(=O)C(C)(C)O4)n2)cc(OC)c1OC |  | kinase assay buffer | 24 h, 0.1% DMSO |  | solubility | 38.6 µM (≈ 18.2 µg/mL) |

| SMILES | assay | test system | conditions | scale | measurement | value |
| --- | --- | --- | --- | --- | --- | --- |
| O=S(=O)(Nc1ccccc1)c1ccc(NC(=S)Nc2ccccc2)cc1 | refers to: MO% | male mouse, blood | oral, 20 mg/kg daily, 14 days |  | blood cell fraction | 4.7% |
| CCc1ccc(CC/C=C/c2ccc3c(c2)C(=O)CC3)cc1 |  | Sprague-Dawley rat, female | oral, 450 mg/kg/day, 14 days |  | Albumin | 36.5 g/L |
| COc1ncccc1-c1cnn2ccc(N3CCN(C(=O)OC(C)C)CC3)nc12 |  | rat, CCI cold allodynia model, brain | oral, 3 mg/kg, 240 min |  | drug concentration | 1000 nM |
| CC(C)(c1ccccc1)c1cc(-n2nc3ccccc3n2)c(O)c(C(C)(C)c2ccccc2)c1 |  | human aged 3-6 years | concentration not given, sunscreen, 95th percentile |  | daily dermal exposure dose | 1.97 ng/kg/day |
| Cn1cc(-c2nc(N[C@@H]3CCCC[C@@H]3N)c(F)c3c2C(=O)NC3)cn1 | refers to: Hematuria | patients with relapsed or refractory AML | oral, dose not given, all doses |  | hemorrhagic adverse events | 7% |
| COc1ccc2nc3cc(Cl)ccc3c(Nc3cc(CN4CCCC4)c(O)c(CN4CCCC4)c3)c2n1 |  | mouse, blood | intraperitoneal, 28 mg/kg |  | red blood cell count | 9.88 10¹²/L |
| O=C(Nc1ccccc1)C1CCN(C(=O)Oc2cccnc2)CC1 | adverse event reporting | healthy women | oral, 60 mg |  | subjects with Hypoaesthesia adverse event | 0% |
| COc1ccc(-c2c(-c3ccc(C#N)c(F)c3)nc(N3CCC(N)CC3)n(C)c2=O)cc1F | refers to: Neutropenia | human patients | oral, dose not given, any grade, dose escalation, NG |  | treatment-related adverse event incidence | 12% |
| CC(=O)c1c(C)c2cnc(Nc3ccc(C4CCN(CCS(C)(=O)=O)CC4)cn3)nc2n(C2CCCC2)c1=O |  | human, plasma | oral, 75 mg twice daily, day 21, multiple dose, together with: letrozole |  | half-life | 8.13 h |
| C[C@H]1COCCN1c1nc(NCc2cccnc2C(F)(F)F)c2cccnc2n1 |  | conscious rat | intravenous, 10 mg/kg | reference: control | heart rate change | 6.5% |
| CC(C)C[C@H](NC(=O)[C@H](CCCCN)NC(=O)OCC1c2ccccc2-c2ccccc21)C(=O)N[C@H](C(=O)N[C@@H](Cc1ccccc1)C(=O)N[C@@H](Cc1ccccc1)C(=O)N[C@@H](CCCCN)C(=O)NCC(=O)N[C@@H](Cc1ccccc1)C(=O)N[C@@H](C)C(=O)N[C@@H](Cc1c[nH]c2ccccc12)C(=O)N[C@@H](CC(N)=O)C(=O)N[C@H](C(=O)N[C@H]1CSSC[C@@H](C(=O)N[C@@H](Cc2c[nH]cn2)C(=O)N[C@@H](CCCNC(=N)N)C(=O)N[C@@H](CCCNC(=N)N)C(=O)N[C@@H](C)C(=O)N[C@@H](CC(N)=O)C(N)=O)NC(=O)[C@H](C(C)C)NC(=O)[C@H](CCCNC(=N)N)NC(=O)[C@H](C(C)C)NC(=O)CNC(=O)[C@H](CC(N)=O)NC(=O)[C@H](CCCNC(=N)N)NC(=O)[C@H](Cc2ccc(O)cc2)NC(=O)[C@H](C(C)C)NC1=O)C(C)C)C(C)C |  | ICR mice, blood | intraductal mammary, 10 mg/kg, day 5 |  | neutrophils | 20.1 ± 0.99% |
| COc1cc2c(Oc3ccc4[nH]c(C)cc4c3F)ccnc2cc1OCC1(N)CC1 | refers to: grade 1 or 2 mouth ulcer | paediatric high-risk refractory sarcoma | whole group |  | incidence of adverse event | 2.9% |
| CC(C)[C@@H]1NC(=O)CNC(=O)[C@H](CC(N)=O)NC(=O)[C@H](CCCNC(=N)N)NC(=O)[C@H](Cc2ccc(O)cc2)NC(=O)[C@H](C(C)C)NC(=O)[C@@H](NC(=O)[C@@H](NC(=O)[C@H](CC(N)=O)NC(=O)[C@H](Cc2c[nH]c3ccccc23)NC(=O)[C@H](C)NC(=O)[C@H](Cc2ccccc2)NC(=O)CN)C(C)C)CSSC[C@@H](C(=O)N[C@@H](Cc2cnc[nH]2)C(=O)N[C@@H](CCCNC(=N)N)C(=O)N[C@@H](CCCNC(=N)N)C(=O)N[C@@H](C)C(=O)N[C@@H](CC(N)=O)C(N)=O)NC(=O)[C@H](C(C)C)NC(=O)[C@H](CCCNC(=N)N)NC1=O | HPLC | mouse liver homogenate | 2560 µM, 2.00 h, 50 mg/mL tissue |  | remaining peptide | 22.2% and 16.4% and 14.6% |
| CN1CCN(S(=O)(=O)c2cc([N+](=O)[O-])ccc2N(CCOS(C)(=O)=O)CCOS(C)(=O)=O)CC1 |  | NSG mice female, plasma | intraperitoneal, 10 mg/kg, 1.5 h |  | concentration | 20 nM |
| [O-][S+]1CCc2nc(N3CCC(c4ncc(Cl)cn4)CC3)nc(NC3(CO)CCC3)c21 (stereo not shown) | refers to: Headache | healthy male humans | 48 mg single dose |  | adverse event incidence | 50% |
| COc1cc2c(OC3CCNCC3)c3c(c(-c4ccc5c(c4)OCO5)c2cc1OC)C(=O)OC3 |  | mouse | oral |  | CL/F | 0.848 L/h |
| Cc1cccc(Cn2nc(C3CC3)c3c(NC(=O)c4cnc5cc(OCCN6CCN(C)CC6)ccn45)cccc32)n1 | refers to: Dehydration | human platinum-resistant ovarian cancer | oral, dose not given, all-causality |  | adverse events incidence | 18.2% |
